Published values collected from several papers.

CC(C)=CCc1c(O)cc2c(c1O)C(=O)OC2 — viability (HepG2; cell growth or viability, CCK-8; 50 µM, 24 h): 75.3%
O=c1[nH]cc(C(c2cccc(Cl)c2)c2c[nH]c(=O)[nH]c2=O)c(=O)[nH]1 — viability (Ba/F3; 5 µg/mL, 24 h): > 90%
C[C@@H]1O[C@@H](O[C@H]2[C@H](O[C@H]3CC[C@@]4(C)C(CC[C@]5(C)C4CC=C4C6CC(C)(C)CC[C@]6(C(=O)O[C@@H]6O[C@H](CO)[C@@H](O)[C@H](O)[C@H]6O)CC[C@]45C)[C@]3(C)CO)OC[C@H](O)[C@@H]2O)[C@H](O)[C@H](O[C@@H]2OC[C@@H](O)[C@H](O)[C@H]2O)[C@H]1O (stereo partly shown) — viability (HepG2; cell growth or viability, CCK-8; 40 µM, 24 h): 84.5%
Cc1ccccc1C(c1c[nH]c(=O)[nH]c1=O)c1c[nH]c(=O)[nH]c1=O — viability (Ba/F3; 5 µg/mL, 24 h): > 90%
CC(C)=CCc1c(O)cc(CO)cc1O — viability (HepG2; cell growth or viability, CCK-8; 40 µM, 24 h): 78.2%
COc1ccc([C@@H]2CC(=O)c3c(O)cc(O[C@@H]4O[C@H](CO[C@@H]5O[C@@H](C)[C@H](O)[C@@H](O)[C@H]5O)[C@@H](O)[C@H](O)[C@H]4O)cc3O2)cc1O — viability (MRC5; cell growth or viability, MTS; 50 µg/mL, 24 h): 88.7%
O=c1[nH]cc(C(c2ccccc2Br)c2c[nH]c(=O)[nH]c2=O)c(=O)[nH]1 — viability (Ba/F3; 1 µg/mL, 24 h): > 90%
O=C(Nc1ccc(OCCN2CCCC2)cc1)c1cc2ccc(Cl)cc2s1 — viability (C2C12 differentiated myotubes; 100 µM, 72 h): 2%
O=c1[nH]cc(C(c2cccc(C(F)(F)F)c2)c2c[nH]c(=O)[nH]c2=O)c(=O)[nH]1 — viability (Ba/F3; 1 µg/mL, 24 h): > 90%
COc1cc([C@@H]2OC[C@@H]3[C@H]2CO[C@H]3c2cc(OC)c(O)c(OC)c2)cc(OC)c1O — viability (HepG2; cell growth or viability, CCK-8; 10 µM, 24 h): 94.5%
OCC1CSC(c2ccc(O)cc2O)S1 (stereo not shown) — viability (B16-F10; MTT; 5 µM, 24 h; baseline: untreated): 99.9%
CC1=CC(OC(=O)c2ccccc2)C2(COC(=O)c3ccccc3)CCC(=C(C)C)C2C(O)CC2(C)OC2CC1 (stereo not shown) — viability (HepG2; cell growth or viability, CCK-8; 10 µM, 24 h): 97.3%
c1ccc(CN2CCOCCOCCN(CCCCCCCCCCCCCCN3CCOCCOCCN(CCCCCCCCCCCCCCN4CCOCCOCCN(Cc5ccccc5)CCOCCOCC4)CCOCCOCC3)CCOCCOCC2)cc1 — viability (human hepatocytes; 1 µM, 72 h): 80 to 100%
O=c1[nH]cc(C(c2ccc(Cl)cc2)c2c[nH]c(=O)[nH]c2=O)c(=O)[nH]1 — viability (Ba/F3; 1 µg/mL, 24 h): > 90%
C[C@H](N)C(=O)N[C@H]1CSSC[C@@H](C(=O)NCC(=O)O)NC(=O)[C@H](CCC(N)=O)NC(=O)[C@H](Cc2c[nH]cn2)NC(=O)[C@H](CCC(N)=O)NC(=O)[C@H]([C@@H](C)O)NC(=O)[C@H](CO)NC(=O)CNC(=O)[C@H]([C@@H](C)O)NC1=O — viability (human epidermal keratinocytes; MTT; 1 and 10 mg/mL, 30 and 60 min): not toxic
CC(C)=CCN=C(N)NCCC[C@@H](NC(=O)CCCc1ccc(O)cc1)C(=O)N[C@@H](Cc1ccccc1)C(O)CC(=O)N[C@@H](Cc1ccc(O)cc1)C(=O)O (stereo in doubt) — viability (U-87 MG; alamarBlue; 5 µM, 20 h; baseline: DMSO vehicle): no effect

Repeated from above:
O=c1[nH]cc(C(c2cccc(C(F)(F)F)c2)c2c[nH]c(=O)[nH]c2=O)c(=O)[nH]1 — viability (Ba/F3; 1 µg/mL, 24 h): > 90%
COc1cc([C@@H]2OC[C@@H]3[C@H]2CO[C@H]3c2cc(OC)c(O)c(OC)c2)cc(OC)c1O — viability (HepG2; cell growth or viability, CCK-8; 10 µM, 24 h): 94.5%
